Experimental data gathered from unrelated publications.
Lines come from different studies, so protocols differ. Numbers after ± are the reported error.
OPRK1: Kappa-type opioid receptor (OPRK1, Homo sapiens, UniProt P41145)
cyp121: Mycocyclosin synthase (cyp121, Mycobacterium tuberculosis, UniProt P9WPP7)
LYN Y508F: Tyrosine-protein kinase Lyn (LYN, Homo sapiens, UniProt P07948, Y508F)
OPRM1: Mu-type opioid receptor (OPRM1, Homo sapiens, UniProt P35372)

Protein sequences, listed by entry. Tags and fused reporters are not part of them. Lines headed by an entry give the natural chain unless they say otherwise; changes in a name come on top. Residues count along the entry.
UniProt P41145, whole entry: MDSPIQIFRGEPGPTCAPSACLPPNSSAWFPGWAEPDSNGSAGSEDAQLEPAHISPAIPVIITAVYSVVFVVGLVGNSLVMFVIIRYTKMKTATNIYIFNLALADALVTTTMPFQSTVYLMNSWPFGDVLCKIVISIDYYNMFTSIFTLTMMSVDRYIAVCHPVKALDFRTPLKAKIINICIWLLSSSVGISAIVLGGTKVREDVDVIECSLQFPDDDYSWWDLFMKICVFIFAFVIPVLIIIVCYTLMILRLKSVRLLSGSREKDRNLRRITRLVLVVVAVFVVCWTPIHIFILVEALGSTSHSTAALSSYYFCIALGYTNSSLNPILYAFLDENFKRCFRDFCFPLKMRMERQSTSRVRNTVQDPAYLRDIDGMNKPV
UniProt P9WPP7, whole entry: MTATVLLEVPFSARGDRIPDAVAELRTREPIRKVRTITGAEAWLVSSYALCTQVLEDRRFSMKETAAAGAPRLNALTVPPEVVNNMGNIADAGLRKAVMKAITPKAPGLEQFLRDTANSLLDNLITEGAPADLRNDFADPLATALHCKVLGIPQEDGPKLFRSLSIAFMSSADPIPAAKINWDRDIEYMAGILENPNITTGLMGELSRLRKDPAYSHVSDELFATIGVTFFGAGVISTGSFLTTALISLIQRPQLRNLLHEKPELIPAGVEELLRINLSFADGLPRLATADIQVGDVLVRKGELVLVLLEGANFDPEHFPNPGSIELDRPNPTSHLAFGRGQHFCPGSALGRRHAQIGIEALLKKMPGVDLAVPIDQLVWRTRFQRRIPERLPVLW
UniProt P07948, whole entry Y508F, looked up: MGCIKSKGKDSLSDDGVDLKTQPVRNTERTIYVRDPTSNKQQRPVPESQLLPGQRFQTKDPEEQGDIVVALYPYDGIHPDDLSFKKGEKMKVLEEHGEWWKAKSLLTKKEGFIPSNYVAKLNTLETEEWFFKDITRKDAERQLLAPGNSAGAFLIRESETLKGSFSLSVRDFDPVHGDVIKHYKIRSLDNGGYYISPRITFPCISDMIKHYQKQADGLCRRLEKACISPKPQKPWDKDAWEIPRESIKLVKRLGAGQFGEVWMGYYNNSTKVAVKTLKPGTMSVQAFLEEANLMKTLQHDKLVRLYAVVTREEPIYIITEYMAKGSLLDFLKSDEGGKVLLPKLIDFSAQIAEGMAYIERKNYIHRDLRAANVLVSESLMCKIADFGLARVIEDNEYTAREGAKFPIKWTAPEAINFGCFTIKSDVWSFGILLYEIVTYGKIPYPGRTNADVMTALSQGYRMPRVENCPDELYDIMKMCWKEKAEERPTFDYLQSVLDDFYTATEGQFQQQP
UniProt P35372, whole entry: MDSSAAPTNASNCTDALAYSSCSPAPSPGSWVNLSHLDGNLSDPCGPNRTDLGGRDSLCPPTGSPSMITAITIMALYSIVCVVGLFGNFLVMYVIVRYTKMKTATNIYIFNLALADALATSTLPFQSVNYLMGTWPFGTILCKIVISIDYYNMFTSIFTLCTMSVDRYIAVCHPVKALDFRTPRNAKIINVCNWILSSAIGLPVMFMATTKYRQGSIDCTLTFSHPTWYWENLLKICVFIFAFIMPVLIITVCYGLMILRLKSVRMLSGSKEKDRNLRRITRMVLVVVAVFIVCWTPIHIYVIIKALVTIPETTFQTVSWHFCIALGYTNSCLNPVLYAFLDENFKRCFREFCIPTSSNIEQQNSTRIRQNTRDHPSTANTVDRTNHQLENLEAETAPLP
UniProt P9WGR1, whole entry: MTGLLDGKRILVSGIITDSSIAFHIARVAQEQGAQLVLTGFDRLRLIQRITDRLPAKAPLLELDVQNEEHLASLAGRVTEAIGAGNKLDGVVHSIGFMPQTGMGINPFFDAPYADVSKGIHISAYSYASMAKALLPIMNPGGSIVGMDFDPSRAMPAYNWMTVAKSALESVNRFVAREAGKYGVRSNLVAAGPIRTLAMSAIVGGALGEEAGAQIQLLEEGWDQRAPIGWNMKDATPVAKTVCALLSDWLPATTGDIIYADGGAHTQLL
UniProt P30872, whole entry: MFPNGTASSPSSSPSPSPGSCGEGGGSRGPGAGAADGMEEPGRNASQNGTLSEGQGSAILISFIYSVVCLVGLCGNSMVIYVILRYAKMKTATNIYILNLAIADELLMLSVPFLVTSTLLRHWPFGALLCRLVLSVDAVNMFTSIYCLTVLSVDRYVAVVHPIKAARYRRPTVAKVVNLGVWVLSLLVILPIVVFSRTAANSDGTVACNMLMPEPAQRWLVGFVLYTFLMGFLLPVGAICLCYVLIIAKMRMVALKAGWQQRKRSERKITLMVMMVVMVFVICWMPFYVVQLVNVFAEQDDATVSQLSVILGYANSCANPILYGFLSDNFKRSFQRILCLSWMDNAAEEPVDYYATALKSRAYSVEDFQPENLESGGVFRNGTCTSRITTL
UniProt Q8WSF8, 18-236 Y72W limits assumed: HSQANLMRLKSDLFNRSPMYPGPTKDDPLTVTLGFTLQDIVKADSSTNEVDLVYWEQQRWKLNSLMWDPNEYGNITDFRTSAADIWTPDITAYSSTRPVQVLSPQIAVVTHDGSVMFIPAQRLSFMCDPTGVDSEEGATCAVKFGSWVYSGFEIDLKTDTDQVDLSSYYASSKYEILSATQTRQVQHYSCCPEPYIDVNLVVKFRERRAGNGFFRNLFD
UniProt P35353, 24-415 limits assumed: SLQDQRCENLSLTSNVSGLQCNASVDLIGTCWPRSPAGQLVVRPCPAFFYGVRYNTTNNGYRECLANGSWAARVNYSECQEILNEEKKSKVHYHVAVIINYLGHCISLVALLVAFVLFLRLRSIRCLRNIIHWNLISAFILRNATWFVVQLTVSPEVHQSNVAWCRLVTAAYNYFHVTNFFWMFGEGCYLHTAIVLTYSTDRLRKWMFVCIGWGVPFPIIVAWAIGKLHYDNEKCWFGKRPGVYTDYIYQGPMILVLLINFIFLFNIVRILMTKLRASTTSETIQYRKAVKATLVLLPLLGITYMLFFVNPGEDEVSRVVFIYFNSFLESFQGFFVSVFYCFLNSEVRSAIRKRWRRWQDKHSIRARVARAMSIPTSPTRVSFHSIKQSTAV
UniProt P23977, whole entry: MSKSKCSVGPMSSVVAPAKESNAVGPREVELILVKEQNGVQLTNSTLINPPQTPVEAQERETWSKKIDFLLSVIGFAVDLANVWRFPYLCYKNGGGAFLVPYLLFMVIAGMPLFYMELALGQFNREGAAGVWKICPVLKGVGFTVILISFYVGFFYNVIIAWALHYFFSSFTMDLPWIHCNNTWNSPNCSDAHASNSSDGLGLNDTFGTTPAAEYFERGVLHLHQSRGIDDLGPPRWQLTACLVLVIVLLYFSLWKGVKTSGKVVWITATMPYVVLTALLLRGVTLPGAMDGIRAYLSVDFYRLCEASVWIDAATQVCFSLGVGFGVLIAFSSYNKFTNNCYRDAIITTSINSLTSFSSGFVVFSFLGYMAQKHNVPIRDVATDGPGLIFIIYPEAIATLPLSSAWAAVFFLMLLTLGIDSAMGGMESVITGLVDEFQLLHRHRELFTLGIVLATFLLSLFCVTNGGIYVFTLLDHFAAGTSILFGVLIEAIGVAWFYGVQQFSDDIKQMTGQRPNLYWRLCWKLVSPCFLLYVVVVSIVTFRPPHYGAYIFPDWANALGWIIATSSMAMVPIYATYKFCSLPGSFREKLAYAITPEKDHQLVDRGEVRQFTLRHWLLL
UniProt P06241, whole entry, looked up: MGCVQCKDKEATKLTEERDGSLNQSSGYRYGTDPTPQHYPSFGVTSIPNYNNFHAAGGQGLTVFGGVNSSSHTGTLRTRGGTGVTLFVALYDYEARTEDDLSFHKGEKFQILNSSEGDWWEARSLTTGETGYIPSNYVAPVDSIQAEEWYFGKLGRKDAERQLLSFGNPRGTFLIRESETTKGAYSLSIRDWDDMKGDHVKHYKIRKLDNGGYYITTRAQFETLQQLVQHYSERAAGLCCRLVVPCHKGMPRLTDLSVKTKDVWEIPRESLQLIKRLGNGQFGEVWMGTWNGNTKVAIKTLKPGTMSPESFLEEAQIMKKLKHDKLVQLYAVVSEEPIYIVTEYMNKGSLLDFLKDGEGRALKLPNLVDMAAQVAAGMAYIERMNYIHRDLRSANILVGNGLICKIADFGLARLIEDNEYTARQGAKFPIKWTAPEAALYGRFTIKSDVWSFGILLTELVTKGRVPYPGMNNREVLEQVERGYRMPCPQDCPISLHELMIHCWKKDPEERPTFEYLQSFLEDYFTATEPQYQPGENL
UniProt P14867, 28-456 L291T limits assumed: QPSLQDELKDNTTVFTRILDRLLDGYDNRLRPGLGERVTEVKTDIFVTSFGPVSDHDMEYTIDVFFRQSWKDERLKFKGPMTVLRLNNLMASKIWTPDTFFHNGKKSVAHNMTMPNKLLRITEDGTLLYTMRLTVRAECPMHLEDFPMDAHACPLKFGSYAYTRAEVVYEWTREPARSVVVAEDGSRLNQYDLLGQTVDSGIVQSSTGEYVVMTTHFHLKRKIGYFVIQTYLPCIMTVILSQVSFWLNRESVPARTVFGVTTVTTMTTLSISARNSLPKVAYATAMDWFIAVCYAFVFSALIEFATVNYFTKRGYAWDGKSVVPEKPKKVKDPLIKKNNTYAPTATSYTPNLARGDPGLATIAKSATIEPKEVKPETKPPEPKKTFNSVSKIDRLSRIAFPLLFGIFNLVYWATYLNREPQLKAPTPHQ
UniProt P28472, 26-473 limits assumed, stated change not applied: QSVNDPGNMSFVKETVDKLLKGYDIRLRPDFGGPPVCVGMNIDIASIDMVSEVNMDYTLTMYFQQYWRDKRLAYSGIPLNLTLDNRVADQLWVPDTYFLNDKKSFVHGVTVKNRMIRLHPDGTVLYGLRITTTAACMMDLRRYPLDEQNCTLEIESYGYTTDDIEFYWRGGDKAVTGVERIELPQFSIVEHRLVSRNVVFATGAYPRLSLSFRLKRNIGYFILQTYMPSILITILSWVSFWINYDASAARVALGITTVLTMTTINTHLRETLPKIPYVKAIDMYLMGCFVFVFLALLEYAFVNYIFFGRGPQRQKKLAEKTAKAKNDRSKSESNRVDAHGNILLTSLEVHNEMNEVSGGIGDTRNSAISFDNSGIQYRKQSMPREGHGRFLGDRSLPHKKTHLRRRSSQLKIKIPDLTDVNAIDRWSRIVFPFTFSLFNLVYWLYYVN
UniProt Q9T034, whole entry: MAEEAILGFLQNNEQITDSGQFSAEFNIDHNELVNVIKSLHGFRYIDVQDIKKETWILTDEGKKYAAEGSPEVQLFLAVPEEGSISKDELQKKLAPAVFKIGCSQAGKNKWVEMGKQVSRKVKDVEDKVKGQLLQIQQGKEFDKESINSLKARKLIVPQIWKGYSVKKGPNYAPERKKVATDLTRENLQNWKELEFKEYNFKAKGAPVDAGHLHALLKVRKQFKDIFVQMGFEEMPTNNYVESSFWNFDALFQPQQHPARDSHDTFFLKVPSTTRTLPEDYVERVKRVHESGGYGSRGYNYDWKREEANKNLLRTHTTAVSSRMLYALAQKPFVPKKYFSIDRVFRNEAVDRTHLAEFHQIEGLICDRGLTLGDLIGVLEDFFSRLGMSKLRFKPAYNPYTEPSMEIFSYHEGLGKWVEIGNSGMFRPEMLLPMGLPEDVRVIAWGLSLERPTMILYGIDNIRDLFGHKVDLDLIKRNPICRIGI
UniProt P18507, 40-475 partner limits assumed: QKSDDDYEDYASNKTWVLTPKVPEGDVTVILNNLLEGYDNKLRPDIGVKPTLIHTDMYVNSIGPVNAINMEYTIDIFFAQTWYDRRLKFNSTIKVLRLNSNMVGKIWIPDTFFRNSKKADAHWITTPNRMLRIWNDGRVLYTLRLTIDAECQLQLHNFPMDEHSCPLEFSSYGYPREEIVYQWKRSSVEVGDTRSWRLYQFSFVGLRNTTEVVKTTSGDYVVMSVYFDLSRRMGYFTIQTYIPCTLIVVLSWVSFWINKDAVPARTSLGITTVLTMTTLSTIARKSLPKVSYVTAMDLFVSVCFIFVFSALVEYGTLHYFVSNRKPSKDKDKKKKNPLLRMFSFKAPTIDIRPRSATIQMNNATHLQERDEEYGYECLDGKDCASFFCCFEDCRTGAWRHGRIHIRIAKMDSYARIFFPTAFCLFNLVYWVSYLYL
UniProt Q9SGE9, whole entry partner: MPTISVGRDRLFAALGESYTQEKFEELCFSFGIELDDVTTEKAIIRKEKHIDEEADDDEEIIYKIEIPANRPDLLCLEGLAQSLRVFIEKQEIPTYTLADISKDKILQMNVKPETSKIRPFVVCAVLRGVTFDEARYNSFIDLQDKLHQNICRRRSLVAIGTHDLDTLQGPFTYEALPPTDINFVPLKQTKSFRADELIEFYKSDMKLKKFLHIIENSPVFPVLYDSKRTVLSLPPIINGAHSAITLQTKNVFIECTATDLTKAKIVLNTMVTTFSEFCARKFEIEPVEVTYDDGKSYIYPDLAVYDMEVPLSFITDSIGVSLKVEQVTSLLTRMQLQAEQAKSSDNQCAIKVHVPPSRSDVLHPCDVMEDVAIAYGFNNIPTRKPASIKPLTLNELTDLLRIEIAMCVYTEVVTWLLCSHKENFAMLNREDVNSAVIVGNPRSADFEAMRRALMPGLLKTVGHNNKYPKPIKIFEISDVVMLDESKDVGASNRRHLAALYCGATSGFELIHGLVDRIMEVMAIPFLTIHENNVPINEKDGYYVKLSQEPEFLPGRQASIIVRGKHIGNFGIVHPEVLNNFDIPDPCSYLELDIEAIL

Structure (SMILES)	target or system	test	system	conditions	how to read	quantity	result
N#Cc1ccccc1Oc1ccc(Cn2cc(C3CCCCC3)nn2)cc1O	Enoyl-[acyl-carrier-protein] reductase [NADH] (inhA, Mycobacterium tuberculosis, UniProt P9WGR1)	enzyme activity, slow-onset inhibitor		20 °C, final EI* complex		Ki	0.19 ± 0.037 µM
COC(=O)[C@@H]1C=C(OC(=O)c2ccc(O)cc2)C(=O)[C@H]2[C@@]1(C)CC[C@H]1C(=O)O[C@H](c3ccoc3)C[C@]21C	OPRK1	forskolin-induced cAMP inhibition, agonist	CHO-K1 expressing human KOR			EC50	> 10 µM
c1ccc2c(c1)Cc1cc(Cn3ccnc3)ccc1-2	cyp121	binding				Kd	6 ± 1.1 µM
CC(C)C[C@H](NC(=O)[C@@H]1C[C@@H](O)CN1C(=O)[C@@H]1CSSC[C@H](NC(=O)[C@@H](NC(=O)[C@@H]2CCCN2)C(C)C)C(=O)N[C@H](Cc2c[nH]c3ccccc23)C(=O)N[C@@H](CCCCN)C(=O)N[C@@H](Cc2ccccc2)C(=O)NCC(=O)N1)C(=O)O	Somatostatin receptor type 1 (SSTR1, Homo sapiens, UniProt P30872)	β-arrestin recruitment, agonist				EC50	3.8 µM
CC(C)n1nc(-c2cccc(O)c2)c2c(N)ncnc21	LYN Y508F	inhibitor				Ki	0.32 µM
c1ccc(-c2ccc(Cn3ccnc3)s2)cc1	cyp121	binding				Kd	19.6 ± 4.4 µM
COC(=O)[C@@H]1C=C(OC(=O)c2cccc(O)c2)C(=O)[C@H]2[C@@]1(C)CC[C@H]1C(=O)O[C@H](c3ccoc3)C[C@]21C	OPRK1	forskolin-induced cAMP inhibition, agonist	CHO-K1 expressing human KOR			EC50	> 10 µM
Cn1c(=O)cc(OCc2cn(C3C[C@H]4CC[C@@H](C3)[N+]4(C)C)nn2)c2ccccc21 (stereo partly drawn)	Soluble acetylcholine receptor (Aplysia californica, UniProt Q8WSF8, Y72W)	binding, scintillation proximity		added: [3H]epibatidine		Kd	0.017 ± 0.0048 µM
COc1ccc(S(=O)(=O)Nc2cccc(C(=O)NC3CCN(c4ncnc5[nH]cnc45)CC3)c2)cc1	A549-ACE2			22.22 µM		viability	98.8%
COCCN(CCOC)c1nc(C)nc2c(-c3c(OC)cc([76Br])cc3OC)c(C)nn12	Corticotropin-releasing factor receptor 1 (Rattus norvegicus, UniProt P35353)	TLC	rat, blood	intravenous, 1 h	relative to: radioactivity	parent fraction	< 35%
Cc1ccc(CCN)cc1	Sodium-dependent dopamine transporter (Slc6a3, Rattus norvegicus, UniProt P23977)	dopamine release, releaser	rat brain synaptosomes			EC50	0.271 ± 0.017 µM
CN1CC[C@]23c4c5ccc(O)c4O[C@H]2c2ncc(-c4ccc(Cl)cc4)cc2C[C@@]3(OCCCc2ccccc2)[C@H]1C5	OPRM1	agonist				EC50	0.0002 ± 1e-05 µM
CC(C)n1nc(-c2ccc3c(c2)OCO3)c2c(N)ncnc21	Tyrosine-protein kinase Fyn (FYN, Homo sapiens, UniProt P06241, G531I/P530I/Q529E)	inhibitor				Ki	0.74 µM
CC(=O)NC1C(OC2C(CO)OC(OC3C(CO)OC(O)C(O)C3O)C(O)C2O)OC(CO)C(O)C1OC1OC(CO)C(O)C(O)C1O (stereo not drawn)	hly, domain 4 (Listeria monocytogenes, UniProt P13128)	binding				Kd	0.462 µM
CC1(C)CC[C@]2(C(=O)O)CC[C@]3(C)C(=CC[C@@H]4[C@@]5(C)CC[C@H](OC(=O)NCc6ccccc6)C(C)(C)[C@@H]5CC[C@]43C)[C@@H]2C1			C57BL/6 mice, brain	intraperitoneal, 85 µmol/kg		AUC(0-inf)	68.3 nmol·h/g
CCC(c1ccc(-c2cscc2C)cc1F)n1ccnc1 (stereo not drawn)	cyp121	binding				Kd	9 ± 1.3 µM
COCc1ccc(C(=O)OC2=C[C@@H](C(=O)OC)[C@]3(C)CC[C@H]4C(=O)O[C@H](c5ccoc5)C[C@]4(C)[C@H]3C2=O)cc1	OPRK1	forskolin-induced cAMP inhibition, agonist	CHO-K1 expressing human KOR			EC50	> 10 µM
CCOC(=O)c1cncn1C(C)c1c(F)c(F)c(F)c(F)c1F (racemic)	GABA-A receptor alpha-1/beta-3, with gamma-2 subunit (GABRA1/GABRB3, Homo sapiens, UniProt P14867+P28472, L291T)	ion current, agonist, two-electrode voltage clamp	Xenopus laevis oocytes		relative to: 100 µM GABA	EC50	7.6 ± 0.6 µM

Structure (SMILES)	target or system	test	system	conditions	how to read	quantity	result
COC(=O)[C@@H]1C=C(OC(=O)c2ccc(O)c(F)c2)C(=O)[C@H]2[C@@]1(C)CC[C@H]1C(=O)O[C@H](c3ccoc3)C[C@]21C	Mu-type opioid receptor, with beta-arrestin-2 (OPRM1, Homo sapiens, UniProt P35372)	β-arrestin-2 recruitment, agonist, PathHunter	CHO-K1			EC50	0.024 ± 0.003 µM
NC[C@@H](NC[C@@H]1CCCN1C[C@@H](CO)NC[C@@H](NCCC12CC3CC(CC(C3)C1)C2)c1ccccc1)c1ccccc1	Escherichia coli	bacterial growth		compound alone		IC50	12.3 µM
COC(=O)[C@@H]1C=C(OC(=O)c2ccc3occc3c2)C(=O)[C@H]2[C@@]1(C)CC[C@H]1C(=O)O[C@H](c3ccoc3)C[C@]21C	OPRK1	forskolin-induced cAMP inhibition, agonist	CHO-K1 expressing human KOR			EC50	> 10 µM
c1ccc(-c2csc(Cn3ccnc3)c2)cc1	cyp121	binding				Kd	28.3 ± 3.7 µM
COC(=O)[C@@H]1C=C(OC(=O)c2cccc(CO)c2)C(=O)[C@H]2[C@@]1(C)CC[C@H]1C(=O)O[C@H](c3ccoc3)C[C@]21C	OPRK1	forskolin-induced cAMP inhibition, agonist	CHO-K1 expressing human KOR			EC50	> 10 µM
C1=C(CCNCc2ccccc2)CCCC1	Phenylalanine--tRNA ligase alpha subunit, cytoplasmic (Arabidopsis thaliana, UniProt Q9T034)	phenylalanine activation, inhibitor				IC50	> 300 µg/mL
COC(=O)[C@@H]1C=C(OC(=O)c2ccc(O)c(Br)c2)C(=O)[C@H]2[C@@]1(C)CC[C@H]1C(=O)O[C@H](c3ccoc3)C[C@]21C	OPRK1	forskolin-induced cAMP inhibition, agonist	CHO-K1 expressing human KOR			EC50	> 10 µM
CCC(c1ccc(-c2ccc(O)cc2)cc1F)n1ccnc1 (stereo not drawn)	cyp121	binding				Kd	3.8 ± 0.85 µM
NCCNCCSc1ccccc1			Swiss albino mice, female, plasma	oral, 600 mg/kg		CL/F	192 mL/min/kg
Nc1ncnc2c1c(-c1cnc3[nH]ccc3c1)nn2C1CCCC1	LYN Y508F	inhibitor				Ki	0.035 µM
Fc1ccc(-c2ccc(Cn3ccnc3)s2)cc1	cyp121	binding				Kd	9.1 ± 1.5 µM
O=C(NC1CCN(c2ncnc3[nH]cnc23)CC1)c1cccc(NS(=O)(=O)c2ccc([N+](=O)[O-])cc2)c1	A549-ACE2			7.407 µM		viability	99.6%
NC[C@@H](NC[C@@H]1CCCN1C[C@@H](CO)NC[C@@H](NCCc1ccc(-c2ccccc2)cc1)c1ccccc1)c1ccccc1	Klebsiella pneumoniae	bacterial growth		compound alone		IC50	> 24 µM
[11CH3]Nc1ccc(C(=O)C2CCN(C3Cc4ccccc4CC3O)CC2)cc1 (single isomer, unassigned)			Sprague-Dawley rat, blood	intravenous, dose not given, 5 min		radioactivity uptake	0.34 %ID/g
CCC(c1ccc(-c2ccc(O)cc2)cc1)n1ccnc1 (stereo not drawn)	cyp121	binding				Kd	1.8 ± 0.32 µM
CC(=O)NC1C(O)CC(OC(CO)C(O)C2OC(OC(CO)C(O)C3OC(OC4C(O)C(OC5C(CO)OC(O)C(O)C5O)OC(CO)C4OC4OC(CO)C(O)C(OC5OC(CO)C(O)C(O)C5O)C4NC(C)=O)(C(=O)O)CC(O)C3NC(C)=O)(C(=O)O)CC(O)C2NC(C)=O)(C(=O)O)OC1C(O)C(O)CO (stereo not drawn)	hly (Listeria monocytogenes, UniProt P13128)	binding		pH 7		Kd	0.0971 µM
COC(=O)[C@@H]1C=C(OC(=O)CCc2ccccc2)C(=O)[C@H]2[C@@]1(C)CC[C@H]1C(=O)O[C@H](c3ccoc3)C[C@]21C	OPRM1	forskolin-induced cAMP inhibition, agonist	CHO-K1 expressing human MOR			EC50	0.4 ± 0.1 µM
c1ccc(-c2ccc(Cn3ccnc3)o2)cc1	cyp121	binding				Kd	33.7 ± 5.6 µM

Excerpt of the above:
Structure (SMILES)	target or system	test	system	conditions	how to read	quantity	result
COC(=O)[C@@H]1C=C(OC(=O)c2cccc(O)c2)C(=O)[C@H]2[C@@]1(C)CC[C@H]1C(=O)O[C@H](c3ccoc3)C[C@]21C	OPRK1	forskolin-induced cAMP inhibition, agonist	CHO-K1 expressing human KOR			EC50	> 10 µM
Cn1c(=O)cc(OCc2cn(C3C[C@H]4CC[C@@H](C3)[N+]4(C)C)nn2)c2ccccc21 (stereo partly drawn)	Soluble acetylcholine receptor (Aplysia californica, UniProt Q8WSF8, Y72W)	binding, scintillation proximity		added: [3H]epibatidine		Kd	0.017 ± 0.0048 µM
COc1ccc(S(=O)(=O)Nc2cccc(C(=O)NC3CCN(c4ncnc5[nH]cnc45)CC3)c2)cc1	A549-ACE2			22.22 µM		viability	98.8%
COCCN(CCOC)c1nc(C)nc2c(-c3c(OC)cc([76Br])cc3OC)c(C)nn12	Corticotropin-releasing factor receptor 1 (Rattus norvegicus, UniProt P35353)	TLC	rat, blood	intravenous, 1 h	relative to: radioactivity	parent fraction	< 35%
Cc1ccc(CCN)cc1	Sodium-dependent dopamine transporter (Slc6a3, Rattus norvegicus, UniProt P23977)	dopamine release, releaser	rat brain synaptosomes			EC50	0.271 ± 0.017 µM
